Published values gathered from unrelated publications.
Numbered parts are unrelated; each lists some results of a single study. Substitutions count along the parent as printed.

Study 1 — technique: RNA Bind-n-Seq; molecule type: RNA; sample: in vitro; concentration: 365 nM; relative to: no-protein control; direction: higher = stronger binding
Target: RNA binding protein fox-1 homolog 2, RRM domain, GST-SBP tag (RBFOX2, Homo sapiens, UniProt O43251-10, residues 100-194)
Setting: natural RNA segment, single round, ends assumed
Target sequence (chain): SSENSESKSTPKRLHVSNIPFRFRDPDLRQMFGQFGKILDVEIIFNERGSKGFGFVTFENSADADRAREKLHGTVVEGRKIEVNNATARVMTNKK
Strand	RBNS enrichment (R)
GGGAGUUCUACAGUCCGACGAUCAGGGCUGUGCUGUUAGGCUGCAUCCCACUCAAAAUACAGGAAAAGCACGAAUCAUGAUUCUGCUUUCUGUUAGCUUAGGCAGACAUUGGGCCUUCACCUACAAGUUUUUCUGGAAUUCUCGGGUGCCAA	0.402
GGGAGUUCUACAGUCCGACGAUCUUCCUUUUGAUGGGGAGAAAGGGCAAAUUAUUUUAAUAUUUUGUAUUUUCAACUUUAUAAAGAUAAAAUAUCCUCAGGGGUGGAGAAGUGUCGUUUUCAUAACUUGCUGAUGGAAUUCUCGGGUGCCAA	0.469
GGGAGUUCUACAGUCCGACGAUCGAGACGCACCAUCCGCAGGCAGCGUCUCAGUGAAGCCUGUCCCCUGGGCUUGUCCACGGCAGGAGGCCCCUGGCCUGUUUAAGCCAUACCGAUGCUUAAUUUACAUUUUUUGGAAUUCUCGGGUGCCAA	0.301
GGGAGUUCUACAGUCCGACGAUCCCUCUGCCCCGUCUCAUGAGGGGCCCGAGCAGAAGCAGGAUAGUUGCUCCGCCUCUGCUGGCACAUUUCCCCAGACCUGAGCUCCCCACCACCCCAGCUGCUCCCCUCCCUGGAAUUCUCGGGUGCCAA	0.654
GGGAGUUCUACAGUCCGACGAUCGCCCGUGGCCCUGCCUCCUAGUGCUCAGGACAGCUCAUUCUCUGUGCAACUUUCAGGAACUUUACUGCAGGUCAGUUAAACACAACUGUUACUGAAAACUAGAUGUAAACUGGAAUUCUCGGGUGCCAA	0.491
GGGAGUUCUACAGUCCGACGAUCAGAGGGAGCACUGCCUCACAAACUGUGAGACUGCGUUUUUUAUACUUGGAAGUGGUGAAUUAUUUUAUAUAAGGUCAUUUAAAUAUCUAUUUAAAAAAUAGGAAGCUGCUUGGAAUUCUCGGGUGCCAA	0.587
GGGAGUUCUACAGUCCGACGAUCUUAGGGCAGAAGCCAGCUGCAGAAGCCACUUUGAUGUUACCCAAGCCACAGCGCUAGAUAAGCCUCACAGUUGUCCAGGGGAAGGGUUUAGGAAUUGGGUCUUUUGUCCAUGGAAUUCUCGGGUGCCAA	0.541
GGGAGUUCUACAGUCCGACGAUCUUGCCUCCCUUCUUAAAGCUAGCAGGCUCAGUUUACAAACCUGUGAGCUACUGUUGGCUGCUGCCCUCCUUCCCAGUGAAAGGUACAGAGCAAUAAGCAUCAUGCAUCUCUGGAAUUCUCGGGUGCCAA	0.553
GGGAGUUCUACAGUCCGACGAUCUUCCCAGUCCCAGCAGGCAGAAUGCCCAAAACCAGGAGCACGAAGGCCUGUCAUCCAUGGGGCCAUUGCAGGCACUCUGCCGCCCGACCUUGAGGGCUGUGCCAAUCCUAUGGAAUUCUCGGGUGCCAA	1.29
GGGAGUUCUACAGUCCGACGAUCGAAAAAAGUUUAAACUACAUUCAUGUUCUUGUUCUGUGUCACUCGGCCCUGGGUAGUCUACCAUUUACUUCACCCCAAGUCCUGCUGCCCAUCCAGUUGGGAAGCCAUGAUGGAAUUCUCGGGUGCCAA	0.29
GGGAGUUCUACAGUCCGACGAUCCCAAAUUUGUGGAACUAUUAAAUGUAUAAUUUGUAGACAUAAAGACUUGAUUGCUUUCCAGUUUAAUGAAAGCUUAGAUGUCCCUGCGAACCCACAAUCUCCACCAGCAGUGGAAUUCUCGGGUGCCAA	0.287
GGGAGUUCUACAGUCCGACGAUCUGGUCAAUACAUUGCUUUCAUGUUUUAAAUUUAAGGAAAAAUUUUAUCUGAUAUUUUUCCAAAUUAAAUAAGUUAGAGAAUGCAAUCGGCGGAUGUGGGGGCGGCCAUCUUGGAAUUCUCGGGUGCCAA	0.466

Study 2 — target: CCNB1, cyclin fold, Cln2 fusion (human); technique: yeast growth competition, sequencing; sample: yeast; setting: weak parent motif; relative to: not given; direction: higher = stronger binding
Starting sequence: RB1 docking peptide (human); PKPLKKLRFDIEG
Substitution	normalised enrichment score
PKPLKKLRFDIEL [G13L]	0.337
PDPLKKLRFDIEG [K2D]	0.239
PKGLKKLRFDIEG [P3G]	1.09
PKPLYKLRFDIEG [K5Y]	0.841
PIPLKKLRFDIEG [K2I]	0.966
PKPCKKLRFDIEG [L4C]	0.775
PKPLKKLRFDIEP [G13P]	0.828
PKMLKKLRFDIEG [P3M]	0.356
PKPLKKLRFIIEG [D10I]	0.362
PKPLKKLRFSIEG [D10S]	-0.795
PKPLRKLRFDIEG [K5R]	0.23
PKPLKKLRFDGEG [I11G]	0.987
PKPLKALRFDIEG [K6A]	0.761
CKPLKKLRFDIEG [P1C]	1.3
PKPLKKLRFDIRG [E12R]	-0.0294
PPPLKKLRFDIEG [K2P]	0.335
PKPLEKLRFDIEG [K5E]	-0.6
PKPLKKLRFDIQG [E12Q]	0.933
PKPLKKYRFDIEG [L7Y]	0.092
PKPWKKLRFDIEG [L4W]	0.674
PKPLFKLRFDIEG [K5F]	0.0935
PKPLKKLRCDIEG [F9C]	-0.139
PKPLKKLLFDIEG [R8L]	-0.506
PKPLKKERFDIEG [L7E]	-0.288

Study 3 — technique: DHFR PCA, deep sequencing; sample: yeast; with: (+)-ABA 58 µM; relative to: wild-type fitted maximum; direction: higher = stronger binding
Target: ABI1, truncated, D143A, DHFR fusion (Arabidopsis thaliana)
Setting: methotrexate growth selection, single substitutions
Starting sequence: PYL1, truncated, DHFR fusion (Arabidopsis thaliana); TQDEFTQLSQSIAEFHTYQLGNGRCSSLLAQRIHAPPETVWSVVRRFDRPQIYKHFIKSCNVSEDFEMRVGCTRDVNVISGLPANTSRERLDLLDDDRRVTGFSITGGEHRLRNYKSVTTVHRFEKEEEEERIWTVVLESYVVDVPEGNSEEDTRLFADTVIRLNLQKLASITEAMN; partner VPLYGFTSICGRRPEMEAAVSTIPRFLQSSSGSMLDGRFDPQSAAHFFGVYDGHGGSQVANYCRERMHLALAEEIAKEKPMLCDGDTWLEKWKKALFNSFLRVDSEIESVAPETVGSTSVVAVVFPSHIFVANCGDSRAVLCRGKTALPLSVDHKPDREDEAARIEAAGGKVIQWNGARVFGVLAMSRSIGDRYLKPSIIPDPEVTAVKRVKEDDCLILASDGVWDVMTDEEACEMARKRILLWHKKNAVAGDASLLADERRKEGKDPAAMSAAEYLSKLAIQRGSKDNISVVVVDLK
Substitution	relative binding score [%]
S11W	83.4
I162T	19.2
Q19R	90.9
S171G	77.2
A170D	24.4
Y141T	-2.88
S150N	78.4
G148M	49.9
V44M	47.8
H16V	5.16
T154W	-3.44
E38W	64.7
G21M	85.7
T154I	51
N85E	80.8
F157M	61
G21D	87
Q2K	77.3
N177M	79.8
E139K	29.5
V62G	20.2
L156Q	71.6
F124Y	95.5
H110C	17.3
R123A	101

Study 4 — target: UBE2U UBC core domain (UniProt Q5VVX9); technique: yeast two-hybrid; sample: yeast; setting: mostly zero background; relative to: not given; direction: higher = stronger interaction
Sequence of UniProt Q5VVX9 (whole entry, looked up): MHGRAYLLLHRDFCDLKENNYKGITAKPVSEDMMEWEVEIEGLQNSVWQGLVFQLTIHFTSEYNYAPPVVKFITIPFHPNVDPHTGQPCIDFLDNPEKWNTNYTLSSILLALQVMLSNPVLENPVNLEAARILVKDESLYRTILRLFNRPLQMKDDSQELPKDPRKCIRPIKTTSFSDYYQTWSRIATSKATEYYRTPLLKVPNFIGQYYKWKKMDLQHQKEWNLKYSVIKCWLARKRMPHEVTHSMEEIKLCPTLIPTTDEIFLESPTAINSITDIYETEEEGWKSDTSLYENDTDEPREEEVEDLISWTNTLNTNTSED
B1: RLIM RING domain (UniProt Q9NVW2); chain SFGENDALKTCSVCITEYTEGNKLRKLPCSHEYHVHCIDRWLSENSTCPICRRAVLASGNRE
B2: MKRN2 RING domain (UniProt Q9H000); chain FAFQASQDKVCSICMEVILEKASASERRFGILSNCNHTYCLSCIRQWRCAKQFENPIIKSCPECRVISEFVIPSV
B3: RNF152 RING domain (UniProt Q8N8N0); chain ETLSQDSLLECQICFNYYSPRRRPKLLDCKHTCCSVCLQQMRTSQKDVRCPWCRGVTKLPPGFS
B4: RNF183 RING domain (UniProt Q96D59); chain EQQGRELEAECPVCWNPFNNTFHTPKMLDCCHSFCVECLAHLSLVTPARRRLLCPLCRQPTVLASGQP
B5: TRIM22 RING domain (UniProt Q8IYM9); chain VKVDIEKEVTCPICLELLTEPLSLDCGHSFCQACITAKIKESVIISRGESSCPVCQTRFQPGNLRP
B6: ANAPC11 RING domain (UniProt Q9NYG5); chain GICRMAFNGCCPDCKVPGDDCPLVWGQCSHCFHMHCILKWLHAQQVQQHCPMCRQEWKFKE
B7: RNF122 RING domain (UniProt Q9H9V4); chain AKKLQLYGQTCAVCLEDFKGKDELGVLPCQHAFHRKCLVKWLEVRCVCPMCNKPIASPSEAT
B8: MEX3B RING domain (UniProt Q6ZN04); chain SGLRRKGSRDCSVCFESEVIAALVPCGHNLFCMECANRICEKSEPECPVCHTAVTQAIRIF
B9: MYCBP2 RING domain (UniProt O75592); chain TSLKQDADDMCMICFTEALSAAPAIQLDCSHIFHLQCCRRVLENRWLGPRITFGFISCPICKNKINHIVLKD
Molecule	lacZ reporter activity
B1 (RLIM RING domain)	0
AEADPLGRFTCPVCLEVYEKPVQVPCGHVFCSACLQECLKPKKPVCGVCRSALAPGVRAV (RNF114 RING domain (UniProt Q9Y508))	14300
B2 (MKRN2 RING domain)	0
B3 (RNF152 RING domain)	15100
B4 (RNF183 RING domain)	0
B5 (TRIM22 RING domain)	13500
LDAASGHPLVCPLCHGQYERPCLLDCFHDFCTGCLRGRATDGRLSCPLCQHQTLVKGPSG (Rnf207 RING domain (UniProt Q3V3A7))	8840
B6 (ANAPC11 RING domain)	16400
B7 (RNF122 RING domain)	0
QVQSRTKIEECVVCSDKKAAVLFQPCGHMCACENCANLMKKCVQCRAVVERRVPFI (MIB1 RING domain (UniProt Q86YT6))	0
FVKTVEDKYKCEKCHLVLCSPKQTECGHRFCESCMAALLSSSSPKCTACQESIVKDKVF (TRAF3 RING domain (UniProt Q13114))	0
B8 (MEX3B RING domain)	0
PEELAVNNDDCAICWDSMQAARKLPCGHLFHNSCLRSWLEQDTSCPTCRMSLNIADNNR (AMFR RING domain (UniProt Q9UKV5))	0
B9 (MYCBP2 RING domain)	0
YCEMGSTFQLCKICAENDKDVKIEPCGHLMCTSCLTAWQESDGQGCPFCRCEIKGTEPII (CBLB RING domain (UniProt Q13191))	9740

A few entries again (study 4):
Molecule	lacZ reporter activity
LDAASGHPLVCPLCHGQYERPCLLDCFHDFCTGCLRGRATDGRLSCPLCQHQTLVKGPSG (Rnf207 RING domain (UniProt Q3V3A7))	8840
B4 (RNF183 RING domain)	0
PEELAVNNDDCAICWDSMQAARKLPCGHLFHNSCLRSWLEQDTSCPTCRMSLNIADNNR (AMFR RING domain (UniProt Q9UKV5))	0
B5 (TRIM22 RING domain)	13500
B1 (RLIM RING domain)	0
FVKTVEDKYKCEKCHLVLCSPKQTECGHRFCESCMAALLSSSSPKCTACQESIVKDKVF (TRAF3 RING domain (UniProt Q13114))	0
B8 (MEX3B RING domain)	0
B3 (RNF152 RING domain)	15100
B6 (ANAPC11 RING domain)	16400
B2 (MKRN2 RING domain)	0
AEADPLGRFTCPVCLEVYEKPVQVPCGHVFCSACLQECLKPKKPVCGVCRSALAPGVRAV (RNF114 RING domain (UniProt Q9Y508))	14300
